Results of several laboratories.
Lines come from different studies, so protocols differ. Several values in a cell are separate wells, animals, samples, runs or records. ± marks the error that the study gave. Where no end group is shown, it is not given here.

NNC(=O)Cn1cc(COc2ccccc2-c2nc(-c3ccccc3)no2)nn1 gave a mRNA level of 5.13 fold (Caco-2; qPCR, measured: TP53; concentration not given, 24 h; baseline: untreated).
The viability of CON=Cc1c(-c2ccccc2)[nH]c2ccccc12 is reported as 48.3 ± 7.8% (RAW264.7; sulforhodamine B; 50 µM, 20 h; baseline: vehicle).
Cc1ccc(NC(=O)c2ccc(CN3CCN(C)CC3)cc2)cc1Nc1nccc(-c2cncc(-c3oncc3C)c2)n1: “MDS-UPDRS part III score” 48.4 ± 20 (mild-to-moderate Parkinson's disease patients; oral, 100 mg once daily, day 7, practically defined OFF state; direction not given).
c1ccc(Cn2c(-c3ccccc3)cc3ccccc32)cc1 has a viability of 84.6 ± 2% (RAW264.7; sulforhodamine B; 50 µM, 20 h; baseline: vehicle).
CO/N=C1\C[C@]2(C[C@@H]3C[C@@H](C/C=C(\C)C[C@@H](C)/C=C/C=C4\CO[C@@H]5[C@H](O)C(C)=C[C@@H](C(=O)O3)[C@]45O)O2)O[C@H](/C(C)=C/C(C)C)[C@H]1C — result for “faecal egg count reduction”: 96% (Haemonchus contortus; multidrug resistant, sheep; oral, 0.2 mg/kg, day 2 post-treatment, with: closantel 10 mg/kg).
With O=C(Cn1cc(COc2ccccc2-c2nc(Cc3ccccc3)no2)nn1)NNC(=S)Nc1ccccc1 the mRNA level was 0.31 ± 0.04 fold (A549; qPCR, measured: mTOR; IC50, 24 h; baseline: untreated cancer cells).
Under “faecal egg count reduction”, Cc1cc(C(C#N)c2ccc(Cl)cc2)c(Cl)cc1NC(=O)c1cc(I)cc(I)c1O (stereo not drawn) is recorded as 89% (Haemonchus contortus; multidrug resistant, sheep; subcutaneous, 5 mg/kg, day 10 post-treatment, with: moxidectin 0.2 mg/kg).
The DOPAC level of CC(C)C[C@H](NC(=O)[C@H](CO)NC(=O)[C@H](CCCNC(=N)N)NC(=O)[C@H](CC(=O)O)NC(=O)[C@H](CCC(=O)O)NC(=O)[C@H](C)NC(=O)[C@@H]1CCCN1C(=O)[C@H](C)NC(=O)[C@H](CCC(=O)O)NC(=O)[C@@H]1CCCN1C(=O)[C@@H]1CCCN1)C(N)=O is reported as 1260 ± 174 ng/g (HPLC-EC; F344 rat, normal, striatum; intranasal, 100 µg, 5 days/week for 3 weeks).
With `TDVDHAFLRF-NH2 (C-amide)` the inhibition was 100% (Drosophila melanogaster; heart rate; adult heart; 40 nL injected, 1 µM, 10 min; baseline: DMS).
With NC(=O)Cn1cc(COc2ccccc2-c2nc(-c3ccccc3)no2)nn1 the mRNA level was 4.75 ± 0.03 fold (Caco-2; qPCR, measured: TP53; concentration not given, 24 h; baseline: untreated).
The viability of CC(C)=CCc1c(-c2ccccc2)n(CC=C(C)C)c2ccccc12 is reported as 89 ± 3.4% (RAW264.7; sulforhodamine B; 50 µM, 20 h; baseline: vehicle).
NC(=O)Cn1cc(COc2ccccc2-c2nc(Cc3ccccc3)no2)nn1 has a mRNA level of 0.23 ± 0.004 fold (A549; qPCR, measured: EGFR; IC50, 24 h; baseline: untreated cancer cells).
C#CCn1c(-c2ccccc2)cc2ccccc21 gave a viability of 35.8 ± 3.2% (RAW264.7; sulforhodamine B; 50 µM, 20 h; baseline: vehicle).
O=C1c2c(O)cc(O)cc2O[C@H](c2cc(O)c(O)c(O)c2)[C@H]1O has an EC50 of about 0.2 µM (GABAA receptor, rat; tonic current enhancement, positive allosteric modulator, whole-cell patch clamp; hippocampal neurons, cultured; with: ethanol 60 mM for 30 min, recorded 24 h after exposure).
With COc1cccc2c1C(=O)c1c(O)c3c(c(O)c1C2=O)C[C@@](O)(C(=O)CO)C[C@@H]3O[C@H]1C[C@H](N)[C@H](O)[C@H](C)O1 the mRNA level was 0.19 ± 0.003 fold (Caco-2; qPCR, measured: PI3K; IC50, 24 h; baseline: untreated).
Fc1cc(F)cc(-c2cc3ccccc3[nH]2)c1 has a viability of 86.5 ± 9.4% (RAW264.7; sulforhodamine B; 50 µM, 20 h; baseline: vehicle).
For Nc1nc2c(ncn2[C@@H]2O[C@@H]3COP(=O)(O)O[C@H]3[C@H]2O)c(=O)[nH]1, the EC50 was 101 µM and 88.4 µM (cone cyclic nucleotide-gated channel; ion current, agonist, inside-out patch clamp; pH 7.5, room temperature, endogenous modulator present, -40 mV, with: Ca2+ 20 µM, Mg2+ 100 µM).
Nc1cccc(-c2cc3ccccc3[nH]2)c1 gave an inhibition of 70.8% (RAW264.7; NO release, inhibitor, Griess; 50 µM, 20 h, LPS-stimulated).
With CS(=O)(=O)c1ccc(-c2cnc(N)c(-c3ccc(C(F)(F)F)nc3)c2)cc1 the IC50 was 0.064 µM (Plasmodium cynomolgi; liver-stage schizont growth; primary rhesus hepatocytes; compound added at 3 h, read day 0).
COc1ccc(-c2cc3ccccc3[nH]2)cc1 has a viability of 59.8 ± 4% (RAW264.7; sulforhodamine B; 50 µM, 20 h; baseline: vehicle).
With `TDVDHVFLAF-NH2 (C-amide)` the inhibition was 103% (Drosophila melanogaster; heart rate; adult heart; 40 nL injected, 1 µM, 10 min; baseline: DMS).
